Results from different studies.
Several values in a cell are separate wells, animals, samples, runs or records. Numbers after ± are the reported error.

Structure (SMILES) = Cc1ccc(OCC(=O)N(Cc2cccs2)c2ccn[nH]2)cc1; system = human plasma; conditions = 750 ng/mL, 6 h, 37 °C, unit not given; how to read = reference: time zero; quantity = remaining compound; result = 84.4
Structure (SMILES) = C[C@]12C[C@H](c3ccc(S(C)(=O)=O)cc3)C3=C4CCC(=O)C=C4CC[C@H]3[C@@H]1CC[C@@]2(O)C(F)(F)C(F)(F)F; system = human, plasma; conditions = oral, 5 mg multiple doses, day 28; quantity = AUC(0-24 h); result = 413 ng·h/mL
Structure (SMILES) = CN(CCCO)Cc1ccc(-c2noc(-c3ccc(OCC[18F])c(C(F)(F)F)c3)n2)cc1F; system = Sprague-Dawley rat, male, brain; conditions = intravenous, 30 min; quantity = brain uptake; result = 0.68 ± 0.12 %ID/g
Structure (SMILES) = N#C[C@@H]1CC(F)(F)CN1C(=O)CNC(=O)c1ccnc2c(NC(=O)[C@H](CCCCNC(=O)CCOCCOCCOCCOCCOCCOCCNC(=O)CN3CCN(CC(=O)[O-])CCN(CC(=O)[O-])CCN(CC(=O)[O-])CC3)NC(=O)CCCc3ccc(I)cc3)cccc12.[177Lu+3]; system = mouse, U-87 MG tumour xenograft, salivary gland; conditions = 4 h; quantity = tissue uptake; result = 4.47 ± 2.55 %ID/g
Structure (SMILES) = CN(Cc1ccccc1)C(=O)CN1CCN(CC(=O)N(C)Cc2ccccc2)CCN(Cc2cccc(C(=O)[O-])n2)CC1.[44Sc+3]; system = mouse, liver; conditions = intravenous, 1 h; quantity = tracer uptake; result = 6.24 %ID/g
Structure (SMILES) = CNc1cc(C)c(C(N)=O)cn1; assay = metabolic stability; system = male Wistar rat, hepatocytes; conditions = 1 µM, pH 7.4; quantity = hepatocyte CLint; result = < 1.2 µL/min/10⁶ cells
Structure (SMILES) = CC(C)(O)c1ncc([S@](N)(=O)=NC(=O)Nc2c3c(cc4c2CCC4)CCC3)s1; assay = refers to: immune system disorders; system = healthy human; conditions = oral, 300 mg, CS formulation; quantity = subjects with TEAEs; result = 17%
Structure (SMILES) = C=CC(=O)N1CC2C(=O)N(CCN(C)C)c3c(c4cc(Cl)c(-c5c(O)cccc5F)nc4n(-c4c(C)ccnc4C(C)C)c3=O)N2CC1C (stereo not drawn); system = nude mouse, CSF; conditions = oral, 100 mg/kg, 8 h; quantity = concentration; result = 23.3 nM
Structure (SMILES) = COC1C=COC2(C)Oc3c(C)c(O)c4c(c3C2=O)C2=NC3(CCN(CC(C)C)CC3)NC2=C(NC(=O)C(C)=CC=CC(C)C(O)C(C)C(O)C(C)C(OC(=O)c2cccnc2)C1C)C4=O (stereo not drawn); system = CD-1 mouse female, plasma; conditions = intravenous, 5 mg/kg; quantity = elimination half-life; result = 6.7 h
Structure (SMILES) = O=C(Nc1cnccc1-c1ccc([18F])nc1)c1ccnc(NC(=O)C2CC2)c1; assay = ex vivo gamma counting; system = GSK-3β transgenic mice, early-stage, feces; conditions = intravenous, 120 min, mean, P-gp inhibitor pretreatment, together with: tariquidar 15 mg/kg iv; quantity = SUV; result = 16
Structure (SMILES) = O=C([O-])CN1CCN(CC(=O)[O-])CCN(Cc2cccc(C(=O)[O-])n2)CC1.[44Sc+3]; system = mouse, spleen; conditions = intravenous, 1 h; quantity = tracer uptake; result = 0.69 %ID/g
Structure (SMILES) = CN1CCCNC(=O)c2cccc(c2)C(=O)NCCCN(C)CCCNc2cccc3c2C(=O)c2cccc(c2C3=O)NCCC1; system = nude mice, serum; conditions = dose not given, 10 days; quantity = BUN; result = 15.4 ± 1.5 mg/dL
Structure (SMILES) = C=CC(=O)Nc1cc(Nc2nccc(-c3c[nH]c4ccccc34)n2)c(OC)cc1N(C)CCN(C)C; assay = storage stability; system = human dried blood spot; conditions = 2 h, -80 °C, LLOQ level; quantity = recovery; result = 82.4%
Structure (SMILES) = N#C[C@@H]1CCCN1C(=O)CNC(=O)c1ccnc2ccc(OCCCN3CCN(C(=O)CCc4ccc5c(c4)CN4CCN(Cc6cc(CCC(=O)O)ccc6O)CC(=O)[O][Al-]([18F])([O]C(=O)C4)[O]5)CC3)cc12 (stereo partly drawn); system = BALB/c nude mice, U-87 MG tumour; conditions = 120 min post-injection; how to read = reference: tumour over muscle; quantity = tumour-to-organ ratio; result = 15.5 ± 6.1
Structure (SMILES) = O=C([O-])CN1CCN(CC(=O)[O-])CCN(CC(=O)[O-])CC1.[44Sc+3]; system = mouse, spleen; conditions = intravenous, 1 h; quantity = tracer uptake; result = 0.09 %ID/g
Structure (SMILES) = CCC1CNC(CC)CN(C(C(=O)[O-])c2ccc(C(=O)[O-])cc2)C(CC)CN(CC(=O)[O-])C(CC)CN1.[Mn+2] (stereo not drawn); assay = ICP-MS; system = BALB/c mouse, liver; conditions = intravenous, 0.05 mmol/kg, 30 min, without anaesthesia; quantity = Mn content; result = 3.35 ± 0.38 µg/g
Structure (SMILES) = COC1CN([C@H]2CC[C@H]([C@@]3(C)Oc4c(Cl)cc(C(=O)NCc5c(SC)cc(C)[nH]c5=O)c(C)c4O3)CC2)C1; assay = RNA-seq, refers to: CCR3 mouse homolog; system = mouse, HT-1376 xenograft, whole blood; conditions = dose not given; how to read = reference: vehicle; quantity = log2 fold change; result = 1.1
Structure (SMILES) = CN(Cc1ccccc1)C(=O)CN1CCN(CC(=O)[O-])CCN(CC(=O)[O-])CC1.[44Sc+3]; system = mouse, liver; conditions = intravenous, 1 h; quantity = tracer uptake; result = 2.34 %ID/g
Structure (SMILES) = COc1ccc([C@@H]2CC(=O)c3c(O)cc(O[C@@H]4O[C@H](CO)[C@@H](O)[C@H](O)[C@H]4O[C@@H]4O[C@@H](C)[C@H](O)[C@@H](O)[C@H]4O)cc3O2)cc1O; system = Sprague-Dawley rat, male, obese, plasma; conditions = oral, 100 mg/kg; quantity = AUC(0-t); result = 40 ± 4.53 ng·h/mL
Structure (SMILES) = Oc1ccc([C@@H]2Oc3ccc(O)cc3[C@@H]3CCC[C@@H]32)cc1; system = mouse, plasma; conditions = intravenous, 1 mg/kg; quantity = CL/F; result = 0.1 L/h
Structure (SMILES) = CC(C)n1ncc2c(C(=O)NCCN(C)C)cc(C3CC3)nc21; system = female BALB/c mouse, plasma; conditions = intraperitoneal, 50 mg/kg, 1 h; quantity = concentration; result = 916 ng/mL
Structure (SMILES) = CN(O)C(=O)CCC(=O)NCCCN(CCCCN(CCCNC(=O)CCC(=O)N(C)O)C(=O)CCC(=O)N(C)O)C(=O)CCC(=O)N(C)O.[89Zr]; assay = radio-TLC; system = aqueous buffer; conditions = 7 d, pH 7.2, 37 °C, 89Zr-labelled complex, together with: CuCl2 10-fold excess; quantity = intact complex; result = 99.6 ± 0.4%
Structure (SMILES) = COc1ccc2c(c1)CCn1c[n+]3c(c1-2)-c1ccc(OC)cc1CC3; system = female NSG mice, blood; conditions = 6 mg/kg, day 20, 5 days per week; quantity = red cell distribution width; result = 15 ± 0.36%
Structure (SMILES) = N#C[C@@H]1CC(F)(F)CN1C(=O)CNC(=O)c1ccnc2ccc(OCCCN3CCN(C(=O)CCc4ccc(O)c(CN5CCN6CC(=O)[O][Al-]([18F])([O]C(=O)C5)[O]c5ccc(CCC(=O)N7CCN(CCCOc8ccc9nccc(C(=O)NCC(=O)N%10CC(F)(F)C[C@H]%10C#N)c9c8)CC7)cc5C6)c4)CC3)cc12 (stereo partly drawn); assay = radio-TLC; system = CD-1 mice, plasma; conditions = intravenous, 60 min post-injection; quantity = radiochemical purity; result = 86 ± 7.2%
Structure (SMILES) = COc1cccc(OC)c1-c1cc(C(=O)NC2(C(=O)O)C3CC4CC(C3)CC2C4)nn1-c1ccc(C(=O)N(C)CCCN(C)CCCN(C)C(=O)[C@H](CCCCNC(=O)[C@H](CC(C)C)NC(=O)C2OC2C(=O)O)NC(=O)CN2CCN(CC(=O)[O-])CCN(CC(=O)[O-])CCN(CC(=O)[O-])CC2)cc1C(C)C.[177Lu+3] (mixture of isomers); system = mouse, HT-29 xenograft; conditions = 4 h post injection, biodistribution; how to read = reference: tumour over muscle uptake; quantity = tumour-to-muscle ratio; result = 9.55
Structure (SMILES) = O=C(Nc1cnccc1-c1ccc([18F])cc1)c1ccnc(NC(=O)C2CC2)c1; system = FVB/NJ mice (both sexes), bone; conditions = intravenous, dose not given, 120 min; quantity = SUV; result = 1.11
Structure (SMILES) = Cc1cc(C)n(CCN(CCN)CCCCCCNC(=O)[C@@H](N)Cc2c[nH]cn2)n1.[99Tc+].[C-]#[O+].[C-]#[O+].[C-]#[O+]; system = BALB/c nude mice, MCF7 xenograft, blood; conditions = intravenous, 15 min; quantity = tissue uptake; result = 3.54 ± 0.98 %IA/g
Structure (SMILES) = COc1cccc(OC)c1-c1cc(C(=O)NC2(C(=O)O)C3CC4CC(C3)CC2C4)nn1-c1ccc(C(=O)N(C)CCCN(C)C(=O)[C@H](CCCCNC(=O)[C@H](CC(C)C)NC(=O)C2OC2C(=O)O)NC(=O)CN2CCN(CC(=O)[O-])CCN(CC(=O)[O-])CCN(CC(=O)[O-])CC2)cc1C(C)C.[177Lu+3] (mixture of isomers); system = mouse, HT-29 xenograft; conditions = 72 h post injection, biodistribution; how to read = reference: tumour over muscle uptake; quantity = tumour-to-muscle ratio; result = 35.3
Structure (SMILES) = C/C(N)=N/C(=N\S(=O)(=O)c1ccc(C(F)(F)F)cc1)N1C[C@H](c2ccccc2)C(c2ccc(Cl)cc2)=N1; system = C57BL/6 mouse, plasma; conditions = intravenous, 10 mg/kg, observed value; quantity = AUC(0-inf); result = 10300 ng·h/mL
Structure (SMILES) = CN([O-])C(=O)CN1CCN(CC(=O)N(C)[O-])CCN(CC(=O)N(C)[O-])CC1.[89Zr+4]; assay = radio-TLC; system = human serum; conditions = 3 days, run 3; quantity = intact complex; result = 100%
Structure (SMILES) = Cc1nn(-c2nc3c(F)cc(F)cc3s2)c(O)c1C(c1ccc(C(F)(F)F)cc1)c1c(C)nn(-c2nc3c(F)cc(F)cc3s2)c1O; system = ICR mouse, plasma; conditions = intraperitoneal, 10 mg/kg; quantity = Tmax; result = 2 h and 0.75 h
Structure (SMILES) = CC(C)c1cnc(-c2cc(Cl)ccc2F)cc1Nc1ccncc1C(=O)NC(CO)CO; system = female C57BL/6 mice, plasma; conditions = oral, 10 mg/kg twice daily, day 1, MC-38 tumour-bearing, tau 8 h; quantity = unbound AUC(0-tau); result = 0.0642 µM·h
Structure (SMILES) = CN(Cc1ccccc1)C(=O)CN1CCN(CC(=O)[O-])CCN(CC(=O)N(C)Cc2ccccc2)CC1.[44Sc+3]; system = mouse, blood; conditions = intravenous, 1 h; quantity = tracer uptake; result = 1.45 %ID/g
Structure (SMILES) = CCCCN1C(=O)c2cccc3c(NCCCCN4CCOCC4)ccc(c23)C1=O; system = ethyl acetate; quantity = fluorescence quantum yield; result = 0.3
Structure (SMILES) = C=C(NC(=O)c1csc(-c2nc3c(cc2O)-c2nc(cs2)C(=O)NC(C(C)O)C(=O)NC(=C(C)OC)c2nc(cs2)C(=O)NC2c4nc(cs4)C(=O)NC(COC(=O)c4c5c6c(cccc6n4O)COC(=O)C(OC4CC(C)(O)C(N(C)C)C(C)O4)C2OC5)c2nc-3cs2)n1)C(N)=O (stereo not drawn); system = ICR mice, Streptococcus pneumoniae ATCC 49169 infected, immunocompromised, blood; conditions = intravenous, 32 mg/kg/day twice daily; quantity = Cmax; result = 1590 ng/mL
Structure (SMILES) = CC[C@H](C)[C@@H]1NC(=O)[C@H](Cc2ccc(O)cc2)NC(=O)CCCSC[C@@H](C(=O)N(CC(=O)N[C@@H](CC(C)C)C(=O)NCC(N)=O)Cc2ccc(F)cc2)NC(=O)[C@H](CC(N)=O)NC(=O)[C@H](CCC(N)=O)NC1=O; system = healthy human females, plasma; conditions = intranasal, 400 µg single dose; quantity = AUC(0-last); result = 0.127 ng·h/mL
Structure (SMILES) = OC1(C(F)(F)F)CCN(c2nc(Nc3ccnc(C(F)(F)F)c3)nc(-c3cccc(C(F)(F)F)n3)n2)C1 (stereo not drawn); system = monkey, both sexes, plasma; conditions = intravenous, 1 mg/kg; quantity = C0; result = 690 ± 49.5 ng/mL
Structure (SMILES) = CN(Cc1ccccc1)C(=O)CN1CCN(CC(=O)[O-])CCN(Cc2cccc(C(=O)[O-])n2)CC1.[44Sc+3]; system = mouse, heart; conditions = intravenous, 1 h; quantity = tracer uptake; result = 0.21 %ID/g
Structure (SMILES) = CC(C)(O)c1ccc(N2Cc3c(ccnc3-c3ccc(F)cc3OCC(F)(F)F)C2=O)cc1; system = male C57BL/6 mouse, brain; conditions = oral, 300 mg/kg, 6 h; quantity = concentration; result = 16200 ng/g
